Experimental data of several laboratories.
Each line is one published result; not all experiments were run side by side. ± marks the error that the study gave. In brackets after ≈: the same amount, converted by molar mass. Bridge positions count the residues as written; N and C are the ends. Ends that are not written are not given here. * marks the point of attachment.
Organism: Escherichia coli

ACPIFTKIQGTYRGKAKCK (disulfide 2-18 (inferred)) (disulfide)  antibacterial activity (K-12 sample A (CGSC sample B); MBC, 2 h, pH 7.4, 37 °C, added: E. coli K-235 LPS at peptide:LPS 1:1 w/w): inhibited
CC(C)C[C@H](NC(=O)[C@H](C)NC(=O)[C@H](CCCCN)NC(=O)[C@H](C)NC(=O)[C@H](CC(C)C)NC(=O)[C@H](CCCCN)NC(=O)[C@H](CC(C)C)NC(=O)[C@H](Cc1c[nH]c2ccccc12)NC(=O)[C@H](CC(C)C)NC(=O)[C@H](CC(C)C)NC(=O)[C@H](C)NC(=O)[C@H](CC(C)C)NC(=O)[C@H](CC(C)C)NC(=O)[C@H](CCCCN)NC(=O)[C@@H]1CCCN1C(=O)[C@H](C)NC(=O)[C@H](CCCCN)NC(=O)[C@H](C)NC(=O)[C@H](CC(C)C)NC(=O)[C@H](CCCCN)NC(=O)[C@@H](N)CCCCN)C(=O)N[C@@H](CCCCN)C(=O)N[C@@H](CCCCN)C(=O)N[C@@H](C)C(N)=O  MIC50 (broth microdilution; TOP10; overnight, 37 °C): 1.26 ± 0.49 µM (≈ 3.35 µg/mL)
CC[C@H](C)[C@H](NC(=O)[C@H](Cc1ccc(O)cc1)NC(=O)[C@@H](NC(=O)[C@@H]1CCCN1C(=O)[C@H](CCCNC(=N)N)NC(=O)[C@H](CC(N)=O)NC(=O)[C@H](CC(N)=O)NC(=O)CN)C(C)C)C(=O)N1CCC[C@H]1C(=O)N[C@@H](CCC(N)=O)C(=O)N1CCC[C@H]1C(=O)N[C@@H](CCCNC(=N)N)C(=O)N1CCC[C@H]1C(=O)N1CCC[C@H]1C(=O)N[C@@H](Cc1c[nH]cn1)C(=O)N1CCC[C@H]1C(=O)N[C@@H](CCCNC(=N)N)C(=O)N[C@@H](CC(C)C)C(N)=O  MBC (DH5α; 24 h, 37 °C): 10 µM
CC(=O)Oc1cccc(C(=O)N[C@H]2COC(=O)[C@@H](NC(=O)c3cccc(OC(C)=O)c3OC(C)=O)[C@H](CCCNC(=O)CCSSCCCCCCCCCCC(=O)NC[C@H](NC(=O)[C@H](CCCCN)NC(=O)N[C@H](C(=O)O)C(C)C)C(=O)NCCCN[C@@H](C[C@H]3O[C@@H](n4ccc(=O)[nH]c4=O)[C@H](O)[C@@H]3O)C(=O)O)OC(=O)[C@@H](NC(=O)c3cccc(OC(C)=O)c3OC(C)=O)COC2=O)c1OC(C)=O  IC50 (bacterial growth, optical density; ΔtolC): 2 ± 1.7 µM
CC[C@H](C)[C@H](NC(=O)[C@@H]1CCCN1C(=O)[C@H](CCCNC(=N)N)NC(=O)[C@@H]1CCCN1C(=O)[C@@H]1CCCN1C(=O)[C@@H](NC(=O)[C@@H]1CCCN1C(=O)[C@H](CCCNC(=N)N)NC(=O)[C@@H]1CCCN1C(=O)[C@H](CC(C)C)NC(=O)[C@H](Cc1ccc(O)cc1)NC(=O)[C@H](CO)NC(=O)CNC(=O)[C@H](CCCCN)NC(=O)[C@H](CC(=O)O)NC(=O)[C@@H](N)C(C)C)[C@@H](C)O)C(=O)N[C@@H](Cc1ccc(O)cc1)C(=O)N[C@@H](CC(N)=O)C(=O)N[C@@H](CCCNC(=N)N)C(=O)N[C@@H](CC(N)=O)C(=O)O  MIC (broth microdilution; BW25113, 5% M9 medium): 0.3 ± 0.07 µM (≈ 0.702 µg/mL)
Clc1ccc(C[n+]2cc(-c3ccc4ccccc4n3)cc3ccccc32)cc1  IC50 (lacZ reporter expression; VirF-independent lacZ control; 3 h, 37 °C, 6.2% DMSO, added: 1 mM IPTG): > 100 µM
CC(C)C[C@H](NC(=O)[C@H](C)NC(=O)[C@H](CC(C)C)NC(=O)[C@H](CCCCN)NC(=O)[C@H](CC(C)C)NC(=O)[C@H](CCCCN)NC(=O)[C@@H](N)CCCCN)C(=O)N[C@@H](C)C(=O)N[C@@H](CCCCN)C(=O)N[C@@H](CC(C)C)C(=O)N[C@@H](C)C(=O)N[C@@H](CC(C)C)C(=O)N[C@@H](CC(C)C)C(=O)N[C@@H](Cc1c[nH]c2ccccc12)C(=O)N[C@@H](CCCCN)C(=O)N[C@@H](C)C(=O)N[C@@H](CC(C)C)C(=O)N[C@@H](C)C(=O)N[C@@H](CC(C)C)C(=O)N[C@@H](CCCCN)C(=O)N[C@@H](CC(C)C)C(=O)N[C@@H](CCCCN)C(=O)N[C@@H](CCCCN)C(=O)N[C@@H](C)C(N)=O  MIC50 (broth microdilution; TOP10; overnight, 37 °C): 0.73 ± 0.4 µM (≈ 1.95 µg/mL)
CCCCN1c2ccccc2C=C(c2ccc3ccccc3n2)C1c1ccccc1 (stereo not drawn)  IC50 (lacZ reporter expression; VirF-independent lacZ control; 3 h, 37 °C, 6.2% DMSO, added: 1 mM IPTG): > 100 µM
CC(C)C[C@H](NC(=O)[C@H](C)NC(=O)[C@H](CC(C)C)NC(=O)[C@H](CCCCN)NC(=O)[C@H](CCCCN)NC(=O)[C@H](Cc1c[nH]c2ccccc12)NC(=O)[C@H](CC(C)C)NC(=O)[C@H](CC(C)C)NC(=O)[C@H](C)NC(=O)[C@H](CC(C)C)NC(=O)[C@H](CCCCN)NC(=O)[C@H](CCCCN)NC(=O)[C@@H]1CCCN1C(=O)[C@H](C)NC(=O)[C@H](CC(C)C)NC(=O)[C@H](C)NC(=O)[C@H](CC(C)C)NC(=O)[C@H](CCCCN)NC(=O)[C@@H](N)CCCCN)C(=O)N[C@@H](C)C(=O)N[C@@H](CC(C)C)C(=O)N[C@@H](CCCCN)C(=O)N[C@@H](CCCCN)C(=O)N[C@@H](C)C(N)=O  MIC50 (broth microdilution; NCTC 9001; overnight, 37 °C): 0.8 ± 0.03 µM (≈ 2.13 µg/mL)
GSS(Octanoyl)FLSPEHQRVQQRKESKKPPAKLQPR (acyl-ghrelin; Octanoyl = CCCCCCCC(=O)*; sequence looked up)  dead bacteria (LIVE/DEAD staining; peptide, sodium phosphate buffer; 100 µg/mL, 2 h, pH 6.8, 37 °C): ~15%
CC(C)C[C@H](NC(=O)[C@H](C)NC(=O)[C@H](CCCCN)NC(=O)[C@H](C)NC(=O)[C@H](CC(C)C)NC(=O)[C@H](CCCCN)NC(=O)[C@H](CC(C)C)NC(=O)[C@H](Cc1c[nH]c2ccccc12)NC(=O)[C@H](CC(C)C)NC(=O)[C@@H]1CCCN1C(=O)[C@H](C)NC(=O)[C@H](CC(C)C)NC(=O)[C@H](CC(C)C)NC(=O)[C@H](CCCCN)NC(=O)[C@H](CC(C)C)NC(=O)[C@H](C)NC(=O)[C@H](CCCCN)NC(=O)[C@H](C)NC(=O)[C@H](CC(C)C)NC(=O)[C@H](CCCCN)NC(=O)[C@@H](N)CCCCN)C(=O)N[C@@H](CCCCN)C(=O)N[C@@H](CCCCN)C(=O)N[C@@H](C)C(N)=O  MIC50 (broth microdilution; NCTC 9001; overnight, 37 °C): 1.8 ± 0.27 µM (≈ 4.78 µg/mL)
CC[C@H](C)[C@H](NC(=O)[C@H](CCCCN)NC(=O)[C@H](CCC(=O)O)NC(=O)[C@H](CCCCN)NC(=O)[C@H](CO)NC(=O)[C@H](CCCCN)NC(=O)[C@H](CCCNC(=N)N)NC(=O)[C@H](Cc1ccccc1)NC(=O)[C@H](Cc1ccccc1)NC(=O)[C@H](CC(=O)O)NC(=O)CNC(=O)[C@H](CC(C)C)NC(=O)[C@@H](N)CC(C)C)C(=O)NCC(=O)N[C@@H](CCCCN)C(=O)N[C@@H](CCC(=O)O)C(=O)N[C@@H](Cc1ccccc1)C(=O)N[C@@H](CCCCN)C(=O)N[C@@H](CCCNC(=N)N)C(=O)N[C@H](C(=O)N[C@H](C(=O)N[C@@H](CCC(N)=O)C(=O)N[C@@H](CCCNC(=N)N)C(=O)N[C@H](C(=O)N[C@@H](CCCCN)C(=O)N[C@@H](CC(=O)O)C(=O)N[C@@H](Cc1ccccc1)C(=O)N[C@@H](CC(C)C)C(=O)N[C@@H](CCCNC(=N)N)C(=O)N[C@@H](CC(N)=O)C(=O)N[C@@H](CC(C)C)C(=O)N[C@H](C(=O)N1CCC[C@H]1C(=O)N[C@@H](CCCNC(=N)N)C(=O)N[C@H](C(=O)N[C@@H](CCC(=O)O)C(=O)N[C@@H](CO)C(=O)O)[C@@H](C)O)C(C)C)[C@@H](C)CC)C(C)C)[C@@H](C)CC  MBC (K-12 sample A (CGSC sample B)): 2.5 µM
CC[C@H](C)[C@H](NC(=O)CN)C(=O)NCC(=O)N[C@@H](CCCCN)C(=O)N[C@@H](Cc1ccccc1)C(=O)N[C@@H](CC(C)C)C(=O)N[C@@H](CCCCN)C(=O)N[C@@H](CCCCN)C(=O)N[C@@H](C)C(=O)N[C@@H](CCCCN)C(=O)N[C@@H](CCCCN)C(=O)N[C@@H](Cc1ccccc1)C(=O)NCC(=O)N[C@@H](CCCCN)C(=O)N[C@@H](C)C(=O)N[C@@H](Cc1ccccc1)C(=O)N[C@H](C(=O)N[C@@H](CCCCN)C(=O)N[C@H](C(=O)N[C@@H](CC(C)C)C(=O)N[C@@H](CCCCN)C(=O)N[C@@H](CCCCN)C(N)=O)[C@@H](C)CC)C(C)C  MBC (K12): 12.5 µg/mL
CC(C)C[C@H](NC(=O)[C@H](CCCCN)NC(=O)[C@H](CCCCN)NC(=O)[C@H](CC(C)C)NC(=O)[C@H](CCCCN)NC(=O)[C@@H](N)CCCNC(=N)N)C(=O)N[C@@H](Cc1c[nH]c2ccccc12)C(=O)N[C@@H](CCCNC(=N)N)C(=O)N[C@@H](CCCCN)C(=O)N[C@@H](Cc1ccccc1)C(=O)N[C@@H](CCCNC(=N)N)C(=O)O  EC50 (bacterial killing, colony count; BL21; 1 h, pH 7, 37 °C): 2.9 µg/mL (≈ 1.86 µM)
Myristoyl-ACPIFTKIQGTYRGKAKCK (disulfide 2-18 (inferred)) (N-myristoyl, disulfide; Myristoyl = CCCCCCCCCCCCCC(=O)*)  antibacterial activity (K-12 sample A (CGSC sample B); MBC, 2 h, pH 7.4, 37 °C, added: E. coli K-235 LPS at peptide:LPS 1:5 w/w): inhibited
CC(C)C[C@H](NC(=O)[C@H](C)NC(=O)[C@H](CC(C)C)NC(=O)[C@H](CCCCN)NC(=O)[C@H](CCCCN)NC(=O)[C@H](Cc1c[nH]c2ccccc12)NC(=O)[C@H](CC(C)C)NC(=O)[C@H](CC(C)C)NC(=O)[C@H](C)NC(=O)[C@@H]1CCCN1C(=O)[C@H](CCCCN)NC(=O)[C@H](CCCCN)NC(=O)[C@H](CC(C)C)NC(=O)[C@H](C)NC(=O)[C@H](CC(C)C)NC(=O)[C@H](C)NC(=O)[C@H](CC(C)C)NC(=O)[C@H](CCCCN)NC(=O)[C@@H](N)CCCCN)C(=O)N[C@@H](C)C(=O)N[C@@H](CC(C)C)C(=O)N[C@@H](CCCCN)C(=O)N[C@@H](CCCCN)C(=O)N[C@@H](C)C(N)=O  MIC50 (broth microdilution; NCTC 9001; overnight, 37 °C): 0.78 ± 0.01 µM (≈ 2.07 µg/mL)
CC[C@H](C)[C@H](NC(=O)[C@H](CO)NC(=O)[C@H](CO)NC(=O)[C@H](Cc1ccccc1)NC(=O)CN)C(=O)N[C@@H](Cc1ccccc1)C(=O)N[C@@H](CCCCNC(=N)N)C(=O)NCC(=O)N[C@H](C(=O)N[C@@H](C)C(=O)N[C@@H](CCCCNC(=N)N)C(=O)N[C@@H](Cc1ccccc1)C(=O)N[C@@H](C)C(=O)N[C@@H](CO)C(=O)N[C@@H](CCCCNC(=N)N)C(=O)NCC(=O)N[C@@H](CC(C)C)C(=O)NCC(=O)N[C@@H](CCCCNC(=N)N)C(N)=O)C(C)C  MBC (ATCC 8739; pretreated trypsin 1 mg/mL): 16 µM
Glycyl-L-leucinamide  collaterally sensitive strains (60 lab-evolved antibiotic-resistant strains; ~0.8x wild-type MIC, 24 h, 30 °C): 82%
